# Measured values collected from several papers.
# Target: Mitogen-activated protein kinase 7 (MAPK7, Homo sapiens, UniProt Q13164)
SMILES,test,test system,setting,scale,measurement,result
COc1c(Cl)cccc1Nc1c(-c2ccncc2C#C[C@@]2(C)CCCN2C(=O)/C=C/CN(C)C)[nH]c2c1C(=O)NCC2,"binding, competition with immobilised ligand",,3 µM,,remaining binding,97%
Nc1ncc(-c2cc(-c3cnn(CC(F)(F)F)c3)ncc2F)nc1C(=O)NC1CNCC(F)C1 (stereo not drawn),enzyme activity,,1 µM,relative to: DMSO control,remaining activity,95.3%
NC(=O)C[C@H]1CCc2sc3ncnc(O[C@H]4CC[C@H](N5CCOCC5)CC4)c3c21,"enzyme activity, inhibitor",,10 µM,,inhibition,3%
CNC(=O)C1CCN(c2cc(C)c(F)cc2NC(=O)c2ccc(-c3cc(O)ccc3C)c(C)c2)CC1,"binding, competition with immobilised ligand",,1 µM,,remaining binding,100%
CS(=O)(=O)Nc1cccc(-c2csc3cnc(Nc4ccc(N5CCN(CCCCCOc6cccc7c6C(=O)N(C6CCC(=O)NC6=O)C7=O)CC5)cc4)nc23)c1 (stereo not drawn),"probe labelling, inhibitor, KiNativ chemoproteomics",MOLT-4,1 µM,,inhibition,30.1%
Cc1ccc(-c2c(/C=C(\C#N)C(=O)NC(C)C)n(CCCO)c3ncnc(N)c23)cc1,"cell-free assay, competition with immobilised ligand",,1 µM,,remaining binding,97%
NC(=O)[C@@H](O)C[C@H]1CCc2sc3ncnc(O[C@H]4CC[C@H](N5CCOCC5)CC4)c3c21,"enzyme activity, inhibitor",,10 µM,,inhibition,3%
Nc1ncc2c(n1)-c1c([nH]c3ccc(C4=CCOCC4)cc13)CCC2,"binding, competition with immobilised ligand",,1 µM,,remaining binding,79%
Cc1cnc2nc1Nc1cccc(c1)COC/C=C/COCc1cc(ccc1OCCN1CCOCC1)N2,"binding, competition with immobilised ligand",,0.1 µM,,remaining binding,99%
COc1cc(Nc2nc(C)cc(-c3cnn4nc(OC)ccc34)n2)cc(C(F)(F)F)c1,inhibitor,,"1 µM, ERK5",relative to: control,remaining activity,83%
CCn1cc(C(=O)O)c(=O)c2c(N)c(F)c(NC3CCCCC3)cc21,kinase activity,,"0.1 µM, with: ATP at Km",,inhibition,6.6%
C=CC(=O)N1CCc2ccc(-n3c(=O)ccc4cnc5ccc(-c6cnn(C)c6)cc5c43)cc21,KINOMEscan,,1 µM,relative to: DMSO control,remaining binding,100%
CN1CCN(Cc2ccc(-c3ccc(CO[C@H]4CCC[C@@H]4NC(=O)c4cc(-c5cnn(C)c5)cnc4N)cc3)cc2)CC1,"enzyme activity, inhibitor",,0.1 µM,,inhibition,10%
COc1cc(Nc2nccc(-c3cnn4nc(OC)ccc34)n2)cc(C(F)(F)F)c1,"binding, competition with immobilised ligand",,1 µM,,remaining binding,98%
C=CC(=O)Nc1cc(-c2nn(C3CCN(CCNC(=O)[C@H](C)CCC45CC6CC(CC(C6)C4)C5)CC3)c3ncnc(N)c23)ccc1Oc1ccccc1,"inhibitor, KiNativ profiling",biochemical,2 µM,,inhibition,16.3%
CNC1C[S+]2CC[S+]3CC[S+](C1)[Ru-4]321([N]=C=S)[n]2c3ccc(OC)cc3c3c4c(c5cc(F)c[n+]1c5c32)C(=O)NC4=O (stereo not drawn),KinomeScan,,0.1 µM,relative to: untreated,remaining binding,45%
C=CC(=O)N1CCCC(n2c(=O)c3ncccc3n(Cc3ccc(Oc4ccccc4)cc3)c2=O)C1 (stereo not drawn),"cell-free assay, competition with immobilised ligand",,1 µM,,remaining binding,55%
CC(C)=CC1OC(C)(C)C2C=C3C(=O)C(Cl)=CC(O)C3C3C(O)C4OC4C(=O)C132 (stereo not drawn),"cell-free assay, competition with immobilised ligand",,10 µM,,remaining binding,75%
CCN1CCN(Cc2ccc(C(=O)Nc3ccc(C)c(NCc4cnc5[nH]ccc5c4OC)c3)cc2C(F)(F)F)CC1,"binding, competition with immobilised ligand",,1 µM,,remaining binding,100%
C=CC(=O)N1Cc2nc(-c3cc(-c4cc(Cl)cnc4Cl)c(F)cc3F)n(-c3ccncn3)c2C1,"cell-free assay, inhibitor",,1 µM,,inhibition,10.8%
C[C@]1(O)CCCN(c2nc(Nc3ccc(S(=O)(=O)N[C@H]4CC[C@H](CN5CCN(c6ccc(C7CCC(=O)NC7=O)cc6F)CC5)CC4)cc3)ncc2C(F)(F)F)C1 (stereo partly drawn),"binding, competition with immobilised ligand",,1 µM,,remaining binding,9.1%

# For quick reference, copied from above:
SMILES,test,test system,setting,scale,measurement,result
C=CC(=O)Nc1cc(-c2nn(C3CCN(CCNC(=O)[C@H](C)CCC45CC6CC(CC(C6)C4)C5)CC3)c3ncnc(N)c23)ccc1Oc1ccccc1,"inhibitor, KiNativ profiling",biochemical,2 µM,,inhibition,16.3%
